Assay results gathered from unrelated publications.
Each numbered part is a random draw from the data of one study; scales do not carry over between parts. Positions count from the first letter of the parent shown.

Sample 1
Target: CCNF, cyclin fold, Cln2 fusion (human)
Technique: yeast growth competition, sequencing
Matrix: yeast
Notes: strong parent motif
Relative to: not given
Direction: higher = stronger binding
Parent: MICAL3 docking peptide (human); LQLRRQLSFSEDS; partner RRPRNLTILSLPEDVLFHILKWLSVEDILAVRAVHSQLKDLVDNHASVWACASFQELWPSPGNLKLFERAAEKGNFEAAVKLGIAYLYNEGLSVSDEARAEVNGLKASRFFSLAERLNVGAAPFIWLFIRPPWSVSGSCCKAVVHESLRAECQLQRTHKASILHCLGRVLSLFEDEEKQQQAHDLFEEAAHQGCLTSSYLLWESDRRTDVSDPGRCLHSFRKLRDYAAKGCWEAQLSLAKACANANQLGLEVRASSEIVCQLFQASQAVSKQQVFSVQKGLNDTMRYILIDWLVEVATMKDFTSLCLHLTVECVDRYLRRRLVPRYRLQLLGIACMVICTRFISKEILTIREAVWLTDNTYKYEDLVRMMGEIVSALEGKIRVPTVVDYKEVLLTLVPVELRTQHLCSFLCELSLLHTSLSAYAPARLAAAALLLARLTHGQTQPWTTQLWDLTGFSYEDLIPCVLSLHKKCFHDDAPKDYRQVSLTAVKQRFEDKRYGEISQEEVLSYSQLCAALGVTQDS
Substitution	normalised enrichment score
F9G	-0.185
D12M	5.6
E11A	6.11
F9N	-0.0108
L7V	0.434
E11N	5.19
R5A	0.312
L7N	-0.27
E11I	5.2
L7S	-0.295
S10I	4.96
D12G	5.32

Sample 2
Target: Interferon regulatory factor 3, full length, phosphomimetic (IRF3, Homo sapiens, UniProt Q14653, residues 1-427, S386D/S396D/S398D/S402D/T404D/S405D)
Technique: protein-binding microarray
Form: double-stranded DNA, one strand shown
Matrix: in vitro
Tested at: 2540 nM top
Notes: 60-bp whole probe
Together with: salmon DNA 0.4 mg/ml
Relative to: random background probes
Direction: higher = stronger binding
Shared flanks, not repeated: GCCTAGCAC … GTCTTGATTCGCTTGACGCTGCTG
Target sequence (chain): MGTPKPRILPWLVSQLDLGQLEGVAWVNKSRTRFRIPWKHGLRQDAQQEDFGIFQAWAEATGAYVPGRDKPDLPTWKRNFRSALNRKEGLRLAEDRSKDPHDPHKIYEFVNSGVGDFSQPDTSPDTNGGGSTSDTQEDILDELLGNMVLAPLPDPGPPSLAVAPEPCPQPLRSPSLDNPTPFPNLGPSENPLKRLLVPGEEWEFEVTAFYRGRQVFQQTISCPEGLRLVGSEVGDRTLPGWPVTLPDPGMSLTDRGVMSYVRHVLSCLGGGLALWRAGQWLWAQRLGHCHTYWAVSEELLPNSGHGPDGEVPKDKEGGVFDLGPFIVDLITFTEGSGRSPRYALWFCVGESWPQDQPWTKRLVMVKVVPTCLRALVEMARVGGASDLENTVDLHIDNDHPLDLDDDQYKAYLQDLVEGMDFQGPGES
Sequence	fitted relative affinity
TCATGAAGCGCTTCTCGAACTGTGCTA	-0.165 z-score
TCAGGTTTCCTTCTCCTTTAGTGCTAG	9.65 z-score
CATTGCCTATTTTTCACCTGGTGCTAG	1.14 z-score
TCAGATTTTTAGTTAGAACTGTGCTAG	0.149 z-score
TCATGTTTGTCACTCTCACTGTGCTAG	0.486 z-score
TTTGATATCAGTTTCGATTAGTGCTAG	5.11 z-score
TTAGATATAAGACTGGATTAGTGCTAG	-0.436 z-score
TTAGGTCTCGGCCTCGGTTAGTGCTAG	-0.483 z-score
GACGGTTTCGACATTGGGGACGTGCTA	3.22 z-score
CTTGCTTCCCAATTCTCTTTGTGCTAG	1.68 z-score
GACGGTTTCTACTATCGGGACGTGCTA	1.74 z-score

Sample 3
Target: ABI1, truncated, D143A, DHFR fusion (Arabidopsis thaliana)
Technique: DHFR PCA, deep sequencing
Matrix: yeast
Notes: methotrexate growth selection, single substitutions
Together with: (+)-ABA 200 µM
Relative to: wild-type fitted maximum
Direction: higher = stronger binding
Parent: PYL1, truncated, DHFR fusion (Arabidopsis thaliana); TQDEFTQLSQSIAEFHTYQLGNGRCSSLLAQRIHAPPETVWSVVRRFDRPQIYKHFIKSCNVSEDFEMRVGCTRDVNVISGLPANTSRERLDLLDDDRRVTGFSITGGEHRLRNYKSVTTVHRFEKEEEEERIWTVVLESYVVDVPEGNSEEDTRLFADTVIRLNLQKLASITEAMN
Substitution	relative binding score [%]
L93I	111
D95M	86.6
S117I	0.736
L91R	27.5
V70F	60.9
N165P	1.25
G148C	81.3
C25D	10.7
D75R	99.6
D96E	108
S27K	67.9
F56Q	27.1
E139I	84.3
S59G	95.7

Further values, each from its own experiment
Substance	target	test	system	conditions	how to read	quantity	value
PhoQ, residues 284 288 289 292 302 303 AEGLLW	PhoP, residues 12 14 15 18 19 LHTVM (Escherichia coli, UniProt P23836)	Sort-seq, refers to: YFP reporter	E. coli	PhoQ-PhoP variant library, together with: 10 µM Mg2+	relative to: high Mg2+ state, higher = stronger signaling	fold induction	6.9

Some of these lines once more (sample 2):
Sequence	fitted relative affinity
TCAGGTTTCCTTCTCCTTTAGTGCTAG	9.65 z-score
CATTGCCTATTTTTCACCTGGTGCTAG	1.14 z-score
TCAGATTTTTAGTTAGAACTGTGCTAG	0.149 z-score
TCATGTTTGTCACTCTCACTGTGCTAG	0.486 z-score
